Published values pooled from the literature.
A part holds a random share of what one study measured.

Block 1
Target: Sal-like protein 4, full length isoform B (SALL4, Homo sapiens, UniProt Q9UJQ4-2, residues 1-616)
Method: universal PBM
Molecule type: double-stranded DNA, one strand shown
Sample: in vitro
Tested at: not given
Setting: 8-mer, flanks averaged, mean of replicates
Direction: higher = stronger binding
Residues (chain): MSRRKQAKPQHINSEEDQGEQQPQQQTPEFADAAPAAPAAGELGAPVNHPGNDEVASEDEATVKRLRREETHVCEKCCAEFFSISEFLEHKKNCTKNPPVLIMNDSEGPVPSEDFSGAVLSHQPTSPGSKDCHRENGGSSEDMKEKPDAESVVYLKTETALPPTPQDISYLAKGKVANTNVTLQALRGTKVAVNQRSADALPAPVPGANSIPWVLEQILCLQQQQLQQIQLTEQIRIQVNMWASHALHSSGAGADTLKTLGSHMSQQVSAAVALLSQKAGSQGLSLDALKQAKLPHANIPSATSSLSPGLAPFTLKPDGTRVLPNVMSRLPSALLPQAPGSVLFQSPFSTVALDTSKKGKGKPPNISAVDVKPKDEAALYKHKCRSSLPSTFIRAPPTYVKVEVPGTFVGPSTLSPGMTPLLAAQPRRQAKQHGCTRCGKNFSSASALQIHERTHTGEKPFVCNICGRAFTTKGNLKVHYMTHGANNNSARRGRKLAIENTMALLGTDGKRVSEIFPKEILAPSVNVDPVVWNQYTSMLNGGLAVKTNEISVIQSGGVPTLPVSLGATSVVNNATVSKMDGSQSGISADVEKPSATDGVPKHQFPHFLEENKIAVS
Sequence	E-score
ACCGTGAG	-0.26
CAACCCTG	-0.0411
GTCGGTTA	-0.0137
ATCTGTAG	-0.0101
ACAAAAAG	0.16
AACACCAG	-0.136

Block 2
Target: Histone acetyltransferase KAT6A, winged helix 2, GST fusion (KAT6A, Homo sapiens, UniProt Q92794, residues 85-181)
Method: protein binding microarray
Molecule type: double-stranded DNA, one strand shown
Sample: in vitro
Tested at: not given
Setting: 8-mer, flanks averaged, mean of 2 arrays, mostly near background
Relative to: not given
Direction: higher = stronger binding
Construct (chain): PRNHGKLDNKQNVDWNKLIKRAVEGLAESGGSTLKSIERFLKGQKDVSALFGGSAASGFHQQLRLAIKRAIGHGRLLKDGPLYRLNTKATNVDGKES
Sequence	E-score
AATCCCTA	-0.0791
TCCCGGGA	-0.0315
ACGGACTC	-0.0907

Block 3
Target: TATA-box-binding protein 1 (TBP1, Arabidopsis thaliana, UniProt P28147, residues 1-200, full length assumed)
Method: protein-binding microarray
Molecule type: double-stranded DNA, one strand shown
Sample: in vitro
Tested at: not given
Setting: k-mer, scored over probes, only values ≥0.25
Direction: higher = stronger binding
Residues (chain): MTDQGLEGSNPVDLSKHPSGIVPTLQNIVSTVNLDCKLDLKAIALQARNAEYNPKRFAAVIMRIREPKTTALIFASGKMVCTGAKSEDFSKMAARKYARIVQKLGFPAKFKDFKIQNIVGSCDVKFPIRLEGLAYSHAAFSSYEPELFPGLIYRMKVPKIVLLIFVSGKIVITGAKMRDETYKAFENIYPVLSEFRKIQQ
Sequence	E-score
ATACCAA	0.279
ATTAAAA	0.419
CATATAC	0.337

Mixed results
Molecule	target	test	system	setting	how to read	endpoint	result
PhoQ, residues 284 288 289 292 302 303 AEGLLW	PhoP, residues 12 14 15 18 19 TPLRH (Escherichia coli, UniProt P23836)	Sort-seq, refers to: YFP reporter	E. coli	PhoQ-PhoP variant library, with: 10 µM Mg2+	relative to: high Mg2+ state, higher = stronger signaling	fold induction	0.805

For quick reference, copied from above (block 2):
Sequence	E-score
ACGGACTC	-0.0907
